# Measured values gathered from unrelated publications.
# Numbered parts are unrelated; each lists some results of a single study.

# Series 1
# Target: Prothrombin, mature alpha-thrombin (F2, Homo sapiens, UniProt P00734)
# Method: aptamer microarray, sandwich
# Molecule type: DNA with 2'F-ANA
# Sample: in vitro
# Concentration: 200 nM
# Notes: whole 15-mer aptamer, many near background
# With: Cy3 exosite-II aptamer, 400 nM
# Direction: higher = stronger binding
Strand,mean fluorescence intensity [a.u.]
GGTTGGTGTGGTTGG (2'F-ANA at 3 4 6 7 11 14),315
GGTTGGTGTGGTTGG (2'F-ANA at 4 5 9 13 15),48.4
GGTTGGTGTGGTTGG (2'F-ANA at 1 2 4 5 6 7 9 14),47.2
GGTTGGTGTGGTTGG (2'F-ANA at 1 6 7 8 9 11 14 15),58.3

# Series 2
# Target: Sal-like protein 4, full length isoform B (SALL4, Homo sapiens, UniProt Q9UJQ4-2, residues 1-616)
# Method: universal PBM
# Molecule type: double-stranded DNA, one strand shown
# Sample: in vitro
# Concentration: not given
# Notes: 8-mer, flanks averaged, mean of replicates
# Direction: higher = stronger binding
Strand,E-score
CCCCAACG,-0.204
CGCGTAGC,-0.241
AAACGTTT,0.224

# Series 3
# Target: Interferon regulatory factor 5, full length, phosphomimetic (IRF5, Homo sapiens, UniProt Q13568-2, residues 1-514, S451D/S453D/S456D/S462D)
# Method: protein-binding microarray
# Molecule type: double-stranded DNA, one strand shown
# Sample: in vitro
# Concentration: 940 nM top
# Notes: 60-bp whole probe
# With: salmon DNA 0.4 mg/ml
# Baseline: random background probes
# Direction: higher = stronger binding
Strand,fitted relative affinity
GCCTAGCACTTCGATTTCGGGTATCGATTAGTGCTAGTCTTGATTCGCTTGACGCTGCTG,3.96 z-score
GCCTAGCACTTAGGTTTCGACACTGGCTTAGTGCTAGTCTTGATTCGCTTGACGCTGCTG,8.02 z-score
GCCTAGCACTCAACTTTAAATTAGACACTGTGCTAGGTCTTGATTCGCTTGACGCTGCTG,-0.00246 z-score
GCCTAGCACTTAGGTTTCCATCTCCTTTAGTGCTAGGTCTTGATTCGCTTGACGCTGCTG,2.04 z-score

# Other studies, line by line
Molecule,target,test,test system,setting,how to read,measurement,result
"PhoQ, residues 284 288 289 292 302 303 AGHLVA","PhoP, residues 12 14 15 18 19 DLLYY (Escherichia coli, UniProt P23836)","Sort-seq, refers to: YFP reporter",E. coli,"PhoQ-PhoP variant library, with: 10 µM Mg2+","baseline: high Mg2+ state, higher = stronger signaling",fold induction,1.95

# A few entries again (series 3):
Strand,fitted relative affinity
GCCTAGCACTTAGGTTTCCATCTCCTTTAGTGCTAGGTCTTGATTCGCTTGACGCTGCTG,2.04 z-score
